Assay results of several laboratories.
Parts stem from different laboratories: compare values within a part only.
Sequence of UniProt P49840 (whole entry, looked up): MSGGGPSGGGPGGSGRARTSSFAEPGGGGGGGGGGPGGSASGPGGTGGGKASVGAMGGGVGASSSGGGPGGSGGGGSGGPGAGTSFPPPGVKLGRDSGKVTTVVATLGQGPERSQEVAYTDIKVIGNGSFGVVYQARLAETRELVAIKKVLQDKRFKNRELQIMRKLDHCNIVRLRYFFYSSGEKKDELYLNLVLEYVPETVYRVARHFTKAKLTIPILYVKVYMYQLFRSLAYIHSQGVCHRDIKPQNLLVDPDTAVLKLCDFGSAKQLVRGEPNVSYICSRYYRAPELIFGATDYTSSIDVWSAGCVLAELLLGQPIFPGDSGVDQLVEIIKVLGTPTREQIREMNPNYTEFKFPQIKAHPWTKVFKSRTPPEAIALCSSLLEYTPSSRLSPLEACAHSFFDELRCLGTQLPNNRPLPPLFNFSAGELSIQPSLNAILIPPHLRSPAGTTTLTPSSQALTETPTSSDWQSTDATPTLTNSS
Sequence of UniProt Q15375 (whole entry, looked up): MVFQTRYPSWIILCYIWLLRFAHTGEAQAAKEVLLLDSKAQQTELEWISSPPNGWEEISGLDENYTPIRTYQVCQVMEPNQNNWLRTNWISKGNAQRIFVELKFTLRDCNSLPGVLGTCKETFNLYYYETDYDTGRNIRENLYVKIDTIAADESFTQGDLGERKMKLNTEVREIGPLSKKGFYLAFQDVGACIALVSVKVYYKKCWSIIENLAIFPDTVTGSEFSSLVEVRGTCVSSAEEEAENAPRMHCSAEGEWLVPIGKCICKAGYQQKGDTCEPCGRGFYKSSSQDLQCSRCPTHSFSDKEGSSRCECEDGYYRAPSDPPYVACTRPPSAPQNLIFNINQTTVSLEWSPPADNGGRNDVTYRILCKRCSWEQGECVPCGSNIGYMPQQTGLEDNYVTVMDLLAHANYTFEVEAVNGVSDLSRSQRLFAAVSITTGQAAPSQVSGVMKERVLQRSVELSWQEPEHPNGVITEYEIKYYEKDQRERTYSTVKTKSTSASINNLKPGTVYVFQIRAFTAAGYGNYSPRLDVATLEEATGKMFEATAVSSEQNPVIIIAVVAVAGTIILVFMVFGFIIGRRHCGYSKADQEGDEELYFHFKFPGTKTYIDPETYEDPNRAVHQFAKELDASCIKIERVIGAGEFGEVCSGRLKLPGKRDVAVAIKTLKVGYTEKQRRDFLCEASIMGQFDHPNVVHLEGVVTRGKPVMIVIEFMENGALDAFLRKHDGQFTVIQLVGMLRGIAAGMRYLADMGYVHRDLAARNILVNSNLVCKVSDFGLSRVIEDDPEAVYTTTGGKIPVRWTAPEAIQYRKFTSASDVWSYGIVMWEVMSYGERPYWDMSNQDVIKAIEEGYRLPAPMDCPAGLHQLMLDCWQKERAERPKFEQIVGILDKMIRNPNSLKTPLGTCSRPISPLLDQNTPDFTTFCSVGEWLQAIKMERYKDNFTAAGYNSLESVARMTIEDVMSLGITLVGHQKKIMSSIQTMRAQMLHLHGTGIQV
Sequence of UniProt P43250 (whole entry, looked up): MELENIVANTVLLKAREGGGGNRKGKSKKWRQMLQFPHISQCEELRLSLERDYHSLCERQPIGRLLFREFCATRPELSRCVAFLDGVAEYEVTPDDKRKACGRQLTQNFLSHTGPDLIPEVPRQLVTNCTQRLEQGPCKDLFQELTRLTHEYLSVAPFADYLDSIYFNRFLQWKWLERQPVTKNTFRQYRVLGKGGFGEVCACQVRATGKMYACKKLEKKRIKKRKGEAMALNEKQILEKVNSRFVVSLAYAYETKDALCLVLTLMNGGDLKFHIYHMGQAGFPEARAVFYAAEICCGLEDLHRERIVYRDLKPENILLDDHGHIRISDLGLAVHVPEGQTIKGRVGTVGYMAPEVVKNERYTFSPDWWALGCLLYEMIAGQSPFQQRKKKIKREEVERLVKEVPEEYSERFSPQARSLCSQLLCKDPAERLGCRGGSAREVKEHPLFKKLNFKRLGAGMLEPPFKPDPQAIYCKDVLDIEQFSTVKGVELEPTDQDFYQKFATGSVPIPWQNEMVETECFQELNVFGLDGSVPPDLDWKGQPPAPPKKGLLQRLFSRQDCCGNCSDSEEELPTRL
Sequence of UniProt P23443 (whole entry, looked up): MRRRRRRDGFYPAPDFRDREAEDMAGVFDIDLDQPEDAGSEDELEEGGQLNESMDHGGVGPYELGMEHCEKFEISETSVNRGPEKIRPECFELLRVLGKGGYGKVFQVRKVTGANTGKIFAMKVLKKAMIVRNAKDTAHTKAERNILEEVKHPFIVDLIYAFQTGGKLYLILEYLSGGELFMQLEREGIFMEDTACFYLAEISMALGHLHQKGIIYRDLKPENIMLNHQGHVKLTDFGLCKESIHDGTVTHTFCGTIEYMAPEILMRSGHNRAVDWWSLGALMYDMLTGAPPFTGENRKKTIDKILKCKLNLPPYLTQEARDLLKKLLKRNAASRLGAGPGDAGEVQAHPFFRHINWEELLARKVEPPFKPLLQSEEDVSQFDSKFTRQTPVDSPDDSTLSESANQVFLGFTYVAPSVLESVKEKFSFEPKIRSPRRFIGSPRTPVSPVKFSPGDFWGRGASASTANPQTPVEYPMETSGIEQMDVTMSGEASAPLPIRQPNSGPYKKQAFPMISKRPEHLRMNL
Sequence of UniProt Q13177 (whole entry, looked up): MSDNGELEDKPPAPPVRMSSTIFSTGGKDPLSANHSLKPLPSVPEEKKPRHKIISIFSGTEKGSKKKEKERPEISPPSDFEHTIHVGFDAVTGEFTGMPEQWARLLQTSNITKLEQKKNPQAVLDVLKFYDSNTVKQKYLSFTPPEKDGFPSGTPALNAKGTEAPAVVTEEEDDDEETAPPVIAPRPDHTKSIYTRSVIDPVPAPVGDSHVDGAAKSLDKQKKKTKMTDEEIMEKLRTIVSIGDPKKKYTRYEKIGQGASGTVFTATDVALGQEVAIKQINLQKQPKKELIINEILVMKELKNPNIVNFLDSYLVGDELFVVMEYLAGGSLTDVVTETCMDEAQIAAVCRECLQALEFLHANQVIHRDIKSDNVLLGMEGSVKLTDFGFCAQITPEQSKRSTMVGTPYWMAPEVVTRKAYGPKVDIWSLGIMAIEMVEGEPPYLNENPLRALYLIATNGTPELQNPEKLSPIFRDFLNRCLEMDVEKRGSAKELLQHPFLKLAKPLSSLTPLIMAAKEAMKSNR

Series 1
Target: Sodium-dependent serotonin transporter (SLC6A4, Homo sapiens, UniProt P31645)
Sequence of UniProt P31645 (whole entry, looked up): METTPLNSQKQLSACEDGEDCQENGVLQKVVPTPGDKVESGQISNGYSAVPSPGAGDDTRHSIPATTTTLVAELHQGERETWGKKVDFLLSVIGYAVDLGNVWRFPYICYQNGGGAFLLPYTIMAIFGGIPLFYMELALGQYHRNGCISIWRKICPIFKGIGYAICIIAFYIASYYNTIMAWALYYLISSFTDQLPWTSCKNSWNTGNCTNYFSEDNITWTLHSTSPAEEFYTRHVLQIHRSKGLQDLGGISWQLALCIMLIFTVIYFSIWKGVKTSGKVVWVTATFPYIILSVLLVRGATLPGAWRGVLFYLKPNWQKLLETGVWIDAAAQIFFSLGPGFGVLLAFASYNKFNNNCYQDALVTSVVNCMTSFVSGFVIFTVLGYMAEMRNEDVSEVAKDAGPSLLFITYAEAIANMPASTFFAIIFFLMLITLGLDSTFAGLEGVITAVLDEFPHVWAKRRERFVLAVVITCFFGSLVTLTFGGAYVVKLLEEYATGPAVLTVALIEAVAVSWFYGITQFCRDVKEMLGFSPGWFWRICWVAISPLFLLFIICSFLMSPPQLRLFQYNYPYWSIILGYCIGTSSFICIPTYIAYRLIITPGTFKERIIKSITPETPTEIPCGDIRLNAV
Observed: binding
Method: radioligand binding
Tested at: 10 µM
| Compound | inhibition [%] |
| --- | --- |
| CC1=C(C#N)C(c2ccc3c(c2)c(NC(=O)c2ccccc2C)nn3C)C(C#N)=C(C)N1 | -6.29 |
| O=C(Nc1ccc(-n2nc(-c3cccnc3)cc2C(F)(F)F)cn1)c1ccc(-c2ccccc2)c(F)c1 | 9.16 |
| CC1=C(C#N)[C@@H](c2ccc3[nH]nc(C)c3c2)C(C#N)=C(c2ccc(Cl)cc2)N1 | -11.3 |
| Cc1cc(-n2nc(Cc3cc(F)cc(C(F)(F)F)c3)nc2C)ccc1C(N)=O | -1.29 |
| CC(C)CC(=O)N1CCc2nc(-c3ccc(Br)cc3)nc(N(C)Cc3ccccc3)c2C1 | -16.7 |
| CC(=O)Nc1nc(CN2CCC[C@H](Cc3cc(C)nc(C)c3)C2)cs1 | 52.3 |
| CC(=O)Nc1c(F)cc(C(=O)N[C@H]2CC[C@H](O)CC2)cc1O[C@@H](C)c1ccccc1 | -10.1 |
| COCCc1ccc(-c2c(C)nc3c(N4CCOCC4)ccnn23)cn1 | 0.57 |
| O=C(NC[C@@H]1[C@H]2CN(C(=O)OCc3cc(C(F)(F)F)cc(C(F)(F)F)c3)C[C@@H]12)c1ccc2[nH]nnc2c1 | -9.34 |
| CS(=O)(=O)NCC[C@H](NC(=O)c1cncc2c1cnn2-c1ccc(F)cc1)c1ccnc(S(C)(=O)=O)c1 | -7.52 |
| c1ccc(C2CCN(c3cnc4c(N5CCOCC5)nccn34)CC2)cc1 | 3.12 |
| COCc1nc2cnc3cc(-c4c(C)noc4C)c(OC[C@H]4CCNC4)cc3c2n1[C@H](C)c1ccccc1 | 10.7 |
| O=C1c2ccc(Nc3ccc(F)cc3F)cc2CCc2ccc(OC[C@H](O)CO)cc21 | 20.7 |
| Cc1c[nH]c2nccc(Oc3c(F)cc(Nc4cc(Cl)nc(N)n4)cc3F)c12 | 2.1 |
| CN1CCN(C(=O)C(C)(C)c2ccc(C(=O)Nc3cn4cc(-c5ccncc5)ccc4n3)cc2)CC1 | -3.55 |
| C[C@@]1(Cc2ccc(C#N)cc2)C(=O)N(c2cc(Cl)cc(Cl)c2)c2ncc(C(=O)NC3(c4nc(C5CCC5)no4)CC3)n21 | 5.35 |
| CCOCCn1cc(C(=O)Nc2ccc(-n3nc(-c4cccnc4)cc3C(F)(F)F)cn2)ccc1=O | 8.63 |
| Nc1c(C(=O)NCc2ccc(C(=O)NCCCC3CCCCC3)cc2)cnn1-c1ccccc1 | 7.75 |
| CCCOc1ccc([C@H]2[C@H](C(=O)O)[C@@H](c3ccc4c(c3)OCO4)CN2CC(=O)Nc2c(CC)cccc2CC)cc1 | 10.6 |
| C[C@H](NC(=O)c1cnc2n1[C@](C)(Cc1ccc(C#N)cc1)C(=O)N2c1cc(Cl)c(F)c(Cl)c1)C(=O)NC1(c2ccccn2)CC1 | -4.33 |
| O=C(Nc1cccnn1)N1CCC(=Cc2cccc(Oc3ccc(C(F)(F)F)cn3)c2)CC1 | 20.2 |
| CNC(=O)Nc1ccc2c(c1)[C@]1(CC2)OC(=O)N(CC(=O)N(Cc2ccc(F)cc2)[C@@H](C)C(F)(F)F)C1=O | 31 |
| Cc1nc(N2CC[C@@H](O)C2)ncc1-c1cc(C(F)(F)F)cc2[nH]ncc12 | -6.93 |
| CN(C)C(=O)Cn1cc(-c2nc([C@@](C)(c3ccc(-c4cnc(N)nc4)cc3)C3CC3)no2)cn1 | 6.28 |
| Cc1cc(C)c(-n2ccn3nc(-c4cccnc4)cc23)cc1NC(=O)c1cc(C#N)cc(S(F)(F)(F)(F)F)c1 | 11.1 |

Series 2
Cell line: HEK-293T/ACE2
Tested at: concentration not given
Time: 16 (unit not given)
Reference: vehicle
| Structure (SMILES) | viability |
| --- | --- |
| Cn1c(=O)cc(N2CCC[C@@H](N)C2)n(Cc2ccccc2C#N)c1=O | 100% |
| C#C[C@]1(O)CC[C@H]2[C@@H]3CCc4cc(OC)ccc4[C@H]3CC[C@@]21C | 103% |
| CC(=O)OCC(=O)[C@@]12OC3(CCCC3)O[C@@H]1C[C@H]1[C@@H]3CCC4=CC(=O)C=C[C@]4(C)[C@@]3(F)[C@@H](O)C[C@@]12C | 99.9% |
| CC(C)(Sc1cc(C(C)(C)C)c(O)c(C(C)(C)C)c1)Sc1cc(C(C)(C)C)c(O)c(C(C)(C)C)c1 | 102% |
| Nc1nc2c(ncn2CCC(CO)CO)c(=O)[nH]1 | 97.3% |
| Cc1onc(-c2ccccc2)c1-c1ccc(S(N)(=O)=O)cc1 | 101% |
| CN(C)C(=O)Oc1cccc([N+](C)(C)C)c1 | 102% |
| CC1=C(/C=C/C(C)=C/C=C/C(C)=C\C(=O)O)C(C)(C)CCC1 | 99.8% |
| COc1cccc2c1C(=O)c1c(O)c3c(c(O)c1C2=O)C[C@@](O)(C(=O)CO)C[C@@H]3O[C@H]1C[C@H](N)[C@@H](O)[C@H](C)O1 | 79.3% |

Series 3
Cell line: A-375
Tested at: 100 µM
Time: 18 h
| Structure (SMILES) | viability [%] |
| --- | --- |
| C[C@@H]1CC[C@H]2[C@@H](C)C(=O)O[C@@H]3O[C@@]4(C)CC[C@@H]1[C@]32OO4 | 98.5 |
| CC(C)N(CCNC(=O)CN1CCCC1=O)C(C)C | 94.1 |
| CC(NC(C)(C)C)C(=O)c1cccc(Cl)c1 (stereo not shown) | 88.4 |
| CC(C)N(CCC(C(N)=O)(c1ccccc1)c1ccccn1)C(C)C (stereo not shown) | 69.1 |

Series 4
Cell line: HEK-293T-ACE2-TMPRSS2
Method: cell count
Tested at: 10 µM
| Compound | viability [%] |
| --- | --- |
| C=C(C#N)CN1CCN(CC(=C)C#N)CC1 | 70 |
| C=CCN(Cc1ccccc1OCC)C(=O)c1c(C)nc2ncccn12 | 66 |
| COc1ccc(C(CC(=O)NCc2ncc[nH]2)c2ccccc2)cc1 (stereo not shown) | 109 |
| O=C(NCCc1ccccc1)c1cccc(Nc2ccc(-c3ccccc3)nn2)c1 | 77 |
| CCOC(=O)c1nc(N2CCN(c3cccc(C(F)(F)F)c3)CC2)c2ccccc2n1 | 76 |
| Cc1ccc(C(=O)Nc2nc3cc(NC(=O)C4CCCCC4)ccc3s2)cc1 | 72 |
| Cc1cc(SC(C)C(=O)NC2CCS(=O)(=O)C2)nc2ccccc12 (stereo not shown) | 70 |
| Cc1cccc(CN2CCCC3(CCN(c4nc(C)cnc4C)C3)C2=O)c1 (stereo not shown) | 100 |
| Cc1ccc2oc(C(=O)NCC3COc4ccccc4O3)c(C)c2c1 (stereo not shown) | 108 |

Series 5
Structure (SMILES): COc1ccc2c(c1)/C(=C/c1cnc[nH]1)C(=O)N2
Observed: enzyme activity
Mode: inhibitor
Tested at: 0.5 µM
Reference: control
| target | remaining activity [%] |
| --- | --- |
| G protein-coupled receptor kinase 6 (GRK6, Homo sapiens, UniProt P43250) | 85.2 |
| Ephrin type-A receptor 7 (EPHA7, Homo sapiens, UniProt Q15375) | 90.4 |
| Ribosomal protein S6 kinase beta-1 (RPS6KB1, Homo sapiens, UniProt P23443) | 98.2 |
| Serine/threonine-protein kinase PAK 2 (PAK2, Homo sapiens, UniProt Q13177) | 97.7 |
| Glycogen synthase kinase-3 alpha (GSK3A, Homo sapiens, UniProt P49840) | 26.2 |

Excerpt of the above (series 1):
| Compound | inhibition [%] |
| --- | --- |
| CN1CCN(C(=O)C(C)(C)c2ccc(C(=O)Nc3cn4cc(-c5ccncc5)ccc4n3)cc2)CC1 | -3.55 |
| C[C@@]1(Cc2ccc(C#N)cc2)C(=O)N(c2cc(Cl)cc(Cl)c2)c2ncc(C(=O)NC3(c4nc(C5CCC5)no4)CC3)n21 | 5.35 |
| CCOCCn1cc(C(=O)Nc2ccc(-n3nc(-c4cccnc4)cc3C(F)(F)F)cn2)ccc1=O | 8.63 |
| Nc1c(C(=O)NCc2ccc(C(=O)NCCCC3CCCCC3)cc2)cnn1-c1ccccc1 | 7.75 |
| CCCOc1ccc([C@H]2[C@H](C(=O)O)[C@@H](c3ccc4c(c3)OCO4)CN2CC(=O)Nc2c(CC)cccc2CC)cc1 | 10.6 |
